# Assay results collected from several papers.
# Parts stem from different laboratories: compare values within a part only.
# Sequence of UniProt P10721 (whole entry, unmodified, looked up): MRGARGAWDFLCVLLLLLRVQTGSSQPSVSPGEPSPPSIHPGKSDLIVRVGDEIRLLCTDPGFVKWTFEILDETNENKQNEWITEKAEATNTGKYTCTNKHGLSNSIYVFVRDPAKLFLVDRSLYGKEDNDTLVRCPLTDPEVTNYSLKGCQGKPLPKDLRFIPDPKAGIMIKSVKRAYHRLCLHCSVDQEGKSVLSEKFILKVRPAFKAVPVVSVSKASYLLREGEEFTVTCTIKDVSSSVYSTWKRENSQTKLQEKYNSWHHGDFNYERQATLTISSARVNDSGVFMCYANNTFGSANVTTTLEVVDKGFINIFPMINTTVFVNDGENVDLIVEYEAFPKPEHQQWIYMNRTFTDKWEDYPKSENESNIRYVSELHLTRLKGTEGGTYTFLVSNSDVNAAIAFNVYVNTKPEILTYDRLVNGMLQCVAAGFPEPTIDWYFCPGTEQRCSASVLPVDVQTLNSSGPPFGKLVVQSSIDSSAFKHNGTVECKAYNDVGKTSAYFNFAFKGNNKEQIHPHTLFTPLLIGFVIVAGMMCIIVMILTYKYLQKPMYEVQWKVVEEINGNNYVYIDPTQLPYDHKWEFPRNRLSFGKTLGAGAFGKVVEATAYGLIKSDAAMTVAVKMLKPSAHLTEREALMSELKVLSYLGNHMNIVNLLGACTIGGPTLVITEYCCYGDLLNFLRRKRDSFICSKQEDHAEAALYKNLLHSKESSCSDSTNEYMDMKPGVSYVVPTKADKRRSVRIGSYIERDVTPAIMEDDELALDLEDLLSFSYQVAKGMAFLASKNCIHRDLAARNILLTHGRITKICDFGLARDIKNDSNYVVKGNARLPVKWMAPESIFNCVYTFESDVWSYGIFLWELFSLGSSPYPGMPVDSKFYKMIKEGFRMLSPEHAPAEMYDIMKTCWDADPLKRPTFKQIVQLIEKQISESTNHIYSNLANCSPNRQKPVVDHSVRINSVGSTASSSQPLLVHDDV
# Sequence of UniProt O94921 (whole entry, looked up): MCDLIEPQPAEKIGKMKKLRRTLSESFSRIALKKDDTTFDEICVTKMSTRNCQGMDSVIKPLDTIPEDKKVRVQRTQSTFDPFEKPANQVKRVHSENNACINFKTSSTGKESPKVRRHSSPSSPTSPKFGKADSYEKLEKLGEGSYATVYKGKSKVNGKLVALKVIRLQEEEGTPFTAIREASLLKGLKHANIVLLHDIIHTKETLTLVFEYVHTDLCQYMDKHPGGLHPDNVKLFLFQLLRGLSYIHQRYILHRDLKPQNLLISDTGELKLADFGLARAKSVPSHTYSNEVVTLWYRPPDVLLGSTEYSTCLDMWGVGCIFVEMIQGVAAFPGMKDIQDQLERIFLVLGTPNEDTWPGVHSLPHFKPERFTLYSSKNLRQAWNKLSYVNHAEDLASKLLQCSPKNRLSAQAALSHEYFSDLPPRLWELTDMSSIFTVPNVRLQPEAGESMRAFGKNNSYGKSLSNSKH
# Sequence of UniProt P48729 (whole entry, looked up): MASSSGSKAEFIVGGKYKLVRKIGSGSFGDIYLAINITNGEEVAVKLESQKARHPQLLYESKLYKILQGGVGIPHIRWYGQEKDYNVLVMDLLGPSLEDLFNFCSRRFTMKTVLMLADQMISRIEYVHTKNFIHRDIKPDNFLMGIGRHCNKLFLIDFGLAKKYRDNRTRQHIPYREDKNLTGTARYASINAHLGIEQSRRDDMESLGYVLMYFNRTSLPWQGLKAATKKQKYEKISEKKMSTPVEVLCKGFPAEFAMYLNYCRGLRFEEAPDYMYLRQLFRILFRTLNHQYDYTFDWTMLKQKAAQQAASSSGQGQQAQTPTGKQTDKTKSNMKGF
# Sequence of UniProt P29323 (whole entry, looked up): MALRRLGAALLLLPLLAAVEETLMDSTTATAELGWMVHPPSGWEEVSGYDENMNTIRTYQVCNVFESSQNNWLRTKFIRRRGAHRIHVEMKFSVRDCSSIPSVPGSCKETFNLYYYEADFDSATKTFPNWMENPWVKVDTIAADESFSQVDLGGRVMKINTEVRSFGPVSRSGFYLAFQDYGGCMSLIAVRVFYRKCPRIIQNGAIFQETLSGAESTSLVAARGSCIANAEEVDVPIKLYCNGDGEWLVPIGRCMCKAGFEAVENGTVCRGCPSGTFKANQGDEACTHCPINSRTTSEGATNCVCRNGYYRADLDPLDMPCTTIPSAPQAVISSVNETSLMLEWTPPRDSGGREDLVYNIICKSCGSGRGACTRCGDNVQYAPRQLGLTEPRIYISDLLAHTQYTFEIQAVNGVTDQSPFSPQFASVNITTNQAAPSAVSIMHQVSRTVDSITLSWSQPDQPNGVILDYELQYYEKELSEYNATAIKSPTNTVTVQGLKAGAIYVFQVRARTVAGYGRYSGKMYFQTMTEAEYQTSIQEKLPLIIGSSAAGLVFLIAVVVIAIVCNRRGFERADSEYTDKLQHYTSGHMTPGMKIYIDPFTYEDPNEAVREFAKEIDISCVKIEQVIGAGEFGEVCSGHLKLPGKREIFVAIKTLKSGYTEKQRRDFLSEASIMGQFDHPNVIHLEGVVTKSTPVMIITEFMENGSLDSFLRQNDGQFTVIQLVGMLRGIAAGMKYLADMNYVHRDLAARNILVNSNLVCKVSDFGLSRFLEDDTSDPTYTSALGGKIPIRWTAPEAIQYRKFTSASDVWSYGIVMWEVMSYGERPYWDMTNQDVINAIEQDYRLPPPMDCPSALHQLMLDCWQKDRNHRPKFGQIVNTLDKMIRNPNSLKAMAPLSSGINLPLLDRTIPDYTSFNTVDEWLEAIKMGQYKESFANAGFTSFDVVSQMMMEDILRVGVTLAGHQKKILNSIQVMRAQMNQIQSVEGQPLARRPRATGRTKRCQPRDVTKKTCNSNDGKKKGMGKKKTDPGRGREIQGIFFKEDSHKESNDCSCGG
# Sequence of UniProt Q9NYY3 (whole entry, looked up): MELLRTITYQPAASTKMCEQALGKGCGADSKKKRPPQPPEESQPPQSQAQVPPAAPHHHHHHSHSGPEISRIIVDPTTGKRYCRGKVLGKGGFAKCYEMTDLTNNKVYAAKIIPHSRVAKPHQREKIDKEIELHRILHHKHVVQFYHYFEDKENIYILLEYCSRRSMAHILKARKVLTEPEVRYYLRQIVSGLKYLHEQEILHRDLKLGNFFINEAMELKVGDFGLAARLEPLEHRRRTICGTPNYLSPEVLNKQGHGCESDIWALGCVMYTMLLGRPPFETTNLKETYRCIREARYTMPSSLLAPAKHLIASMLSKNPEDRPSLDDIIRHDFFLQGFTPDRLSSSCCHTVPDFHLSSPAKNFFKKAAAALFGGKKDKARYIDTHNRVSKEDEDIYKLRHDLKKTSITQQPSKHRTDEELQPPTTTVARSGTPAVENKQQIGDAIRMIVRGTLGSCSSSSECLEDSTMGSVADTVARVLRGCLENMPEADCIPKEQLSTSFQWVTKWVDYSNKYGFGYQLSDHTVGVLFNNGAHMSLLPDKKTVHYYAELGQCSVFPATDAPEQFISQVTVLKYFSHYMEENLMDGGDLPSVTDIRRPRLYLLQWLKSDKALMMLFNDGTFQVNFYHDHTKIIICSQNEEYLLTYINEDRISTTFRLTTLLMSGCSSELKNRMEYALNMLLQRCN
# Sequence of UniProt Q96Q40 (whole entry, looked up): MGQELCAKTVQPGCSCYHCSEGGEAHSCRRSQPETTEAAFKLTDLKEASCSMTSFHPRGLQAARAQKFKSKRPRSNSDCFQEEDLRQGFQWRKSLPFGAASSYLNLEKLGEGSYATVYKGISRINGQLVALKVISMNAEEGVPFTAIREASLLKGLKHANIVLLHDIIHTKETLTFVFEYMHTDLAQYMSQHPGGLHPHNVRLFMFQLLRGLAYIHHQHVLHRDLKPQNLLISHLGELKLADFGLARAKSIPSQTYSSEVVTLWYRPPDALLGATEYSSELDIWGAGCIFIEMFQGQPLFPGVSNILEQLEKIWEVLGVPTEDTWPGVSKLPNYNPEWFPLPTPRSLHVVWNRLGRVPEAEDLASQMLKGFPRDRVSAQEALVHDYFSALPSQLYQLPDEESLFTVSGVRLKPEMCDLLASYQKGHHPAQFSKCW
# Sequence of UniProt P68400 (whole entry, looked up): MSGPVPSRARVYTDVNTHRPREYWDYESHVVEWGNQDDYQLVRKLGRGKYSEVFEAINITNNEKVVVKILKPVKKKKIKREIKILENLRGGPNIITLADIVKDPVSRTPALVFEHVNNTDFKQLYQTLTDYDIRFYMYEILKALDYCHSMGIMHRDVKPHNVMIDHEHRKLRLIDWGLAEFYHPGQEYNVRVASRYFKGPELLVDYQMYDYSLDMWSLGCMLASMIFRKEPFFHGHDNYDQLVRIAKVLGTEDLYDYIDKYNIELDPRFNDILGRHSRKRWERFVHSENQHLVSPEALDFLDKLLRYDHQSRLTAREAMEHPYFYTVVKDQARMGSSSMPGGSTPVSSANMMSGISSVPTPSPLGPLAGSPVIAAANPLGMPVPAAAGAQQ

# Study 1 — effect on: enzyme activity; mode: inhibitor; tested at: 0.5 µM; relative to: control
# Compound: CC(C)(C)c1nc2c3cc[nH]c(=O)c3c3cc(F)ccc3c2[nH]1
target,remaining activity [%]
"Mitogen-activated protein kinase 12 (MAPK12, Homo sapiens, UniProt P53778)",97.9
"Mast/stem cell growth factor receptor Kit (KIT, Homo sapiens, UniProt P10721)",96.1
"Casein kinase II subunit alpha (CSNK2A1, Homo sapiens, UniProt P68400)",82.9
"Serine/threonine-protein kinase Nek4 (NEK4, Homo sapiens, UniProt P51957)",65.6
"Casein kinase I isoform alpha (CSNK1A1, Homo sapiens, UniProt P48729)",94.6
"Leucine-rich repeat serine/threonine-protein kinase 2 (LRRK2, Homo sapiens, UniProt Q5S007)",47.5
"RAC-gamma serine/threonine-protein kinase (AKT3, Homo sapiens, UniProt Q9Y243)",76.4
"Mitogen-activated protein kinase 13 (MAPK13, Homo sapiens, UniProt O15264)",104
"Tyrosine-protein kinase BTK (BTK, Homo sapiens, UniProt Q06187)",80.5
"Cyclin-dependent kinase 9, with cyclin T1 (CDK9, Homo sapiens, UniProt P50750)",100
"Protein kinase C iota type (PRKCI, Homo sapiens, UniProt P41743)",96
"Serine/threonine-protein kinase WNK2 (WNK2, Homo sapiens, UniProt Q9Y3S1)",104
"Dual specificity mitogen-activated protein kinase kinase 6 (MAP2K6, Homo sapiens, UniProt P52564)",89
"Serine/threonine-protein kinase PLK2 (PLK2, Homo sapiens, UniProt Q9NYY3)",92.6
"Interleukin-1 receptor-associated kinase 4 (IRAK4, Homo sapiens, UniProt Q9NWZ3)",96.3
"Mitogen-activated protein kinase kinase kinase 10 (MAP3K10, Homo sapiens, UniProt Q02779)",89.7
"Serine/threonine-protein kinase Chk1 (CHEK1, Homo sapiens, UniProt O14757)",22.9
"cGMP-dependent protein kinase 1 (PRKG1, Homo sapiens, UniProt Q13976)",40.2
"Mitogen-activated protein kinase kinase kinase kinase 2 (MAP4K2, Homo sapiens, UniProt Q12851)",66.2
"MAP kinase-interacting serine/threonine-protein kinase 2 (MKNK2, Homo sapiens, UniProt Q9HBH9)",62
"Tyrosine-protein kinase Lyn (LYN, Homo sapiens, UniProt P07948)",101
"Ephrin type-A receptor 5 (EPHA5, Homo sapiens, UniProt P54756)",100

# Study 2 — species: mouse; medium: microsomes or S9; tested at: 2 µM; time: 0.5 h
SMILES,remaining compound
CCn1c(=O)n(CC)c2cc(NS(C)(=O)=O)c(Br)cc21,98.1%
CN(C)S(=O)(=O)CCc1cn([C@@H]2CCc3c(F)cccc32)nn1,45.1%
CC(C(=O)N(C)C)S(=O)(=O)N1CCN(C)c2ccncc21 (centres unmarked),74.3%
Cc1cnn(C2CCCC2)c1NC(=O)N1CCC[C@H]1c1nc(C(C)C)no1,45.1%
CNC(=O)C1CCN(c2nc(Nc3ccc4[nH]ncc4c3)nc(OC)n2)CC1,7.28%
Cn1nc(CNC(=O)c2cccn(C)c2=O)c2c1CCCC2,16%
COCC(C)(C)c1noc(-c2cccc3nn[nH]c23)n1,27.2%
COc1ccccc1CNC(=O)c1c(OCC2CC2)cc(=O)n2c1CCCCC2,0.0836%
O=C(CCn1c2c(c3ccccc31)CCn1c-2nc2ccccc2c1=O)N1CCN(Cc2cccnc2)CC1,4%

# Study 3 — tested at: 1 µM
# SMILES: CN1CCN(c2cnc3c(C4CCN(C(=O)c5ccc(OC(F)(F)F)cc5N)CC4)ncnc3c2)CC1
target,effect on,technique,remaining binding [%]
"Cyclin-dependent kinase 14 (CDK14, Homo sapiens, UniProt O94921)",cell-free assay,competition with immobilised ligand,100
"Serine/threonine-protein kinase N2 (PKN2, Homo sapiens, UniProt Q16513)",cell-free assay,competition with immobilised ligand,100
"Epidermal growth factor receptor (EGFR, Homo sapiens, UniProt P00533, del747-752/P753S)",cell-free assay,competition with immobilised ligand,100
"Death-associated protein kinase 3 (DAPK3, Homo sapiens, UniProt O43293)",cell-free assay,competition with immobilised ligand,91
"Activin receptor type-2A (ACVR2A, Homo sapiens, UniProt P27037)",cell-free assay,competition with immobilised ligand,100
"Macrophage colony-stimulating factor 1 receptor, autoinhibited (CSF1R, Homo sapiens, UniProt P07333)",cell-free assay,competition with immobilised ligand,92
"Platelet-derived growth factor receptor beta (PDGFRB, Homo sapiens, UniProt P09619)",cell-free assay,competition with immobilised ligand,95
"Calcium/calmodulin-dependent protein kinase type II subunit beta (CAMK2B, Homo sapiens, UniProt Q13554)",cell-free assay,competition with immobilised ligand,100
"Tyrosine-protein kinase ABL2 (ABL2, Homo sapiens, UniProt P42684)",cell-free assay,competition with immobilised ligand,100
"Serine/threonine-protein kinase RIO3 (RIOK3, Homo sapiens, UniProt O14730)",cell-free assay,competition with immobilised ligand,97
"Calcium/calmodulin-dependent protein kinase type II subunit delta (CAMK2D, Homo sapiens, UniProt Q13557)",cell-free assay,competition with immobilised ligand,100
"Receptor-type tyrosine-protein kinase FLT3 (FLT3, Homo sapiens, UniProt P36888, D835Y)",cell-free assay,competition with immobilised ligand,100
"Discoidin domain-containing receptor 2 (DDR2, Homo sapiens, UniProt Q16832)",cell-free assay,competition with immobilised ligand,100
"ALK tyrosine kinase receptor (ALK, Homo sapiens, UniProt Q9UM73, C1156Y)",cell-free assay,competition with immobilised ligand,100
"Insulin receptor-related protein (INSRR, Homo sapiens, UniProt P14616)",cell-free assay,competition with immobilised ligand,100
"cGMP-dependent protein kinase 2 (PRKG2, Homo sapiens, UniProt Q13237)",cell-free assay,competition with immobilised ligand,77
"Cyclin-dependent kinase 15 (CDK15, Homo sapiens, UniProt Q96Q40)",cell-free assay,competition with immobilised ligand,100
"Serine/threonine-protein kinase VRK2 (VRK2, Homo sapiens, UniProt Q86Y07)",cell-free assay,competition with immobilised ligand,100
"MAP kinase-interacting serine/threonine-protein kinase 1 (MKNK1, Homo sapiens, UniProt Q9BUB5)",cell-free assay,competition with immobilised ligand,100
"Mast/stem cell growth factor receptor Kit (KIT, Homo sapiens, UniProt P10721, D816H)",cell-free assay,competition with immobilised ligand,100
"Cyclin-dependent kinase 4, with cyclin D3 (CDK4, Homo sapiens, UniProt P11802)",cell-free assay,competition with immobilised ligand,100
"Leukocyte tyrosine kinase receptor (LTK, Homo sapiens, UniProt P29376)",cell-free assay,competition with immobilised ligand,49
"Ephrin type-B receptor 2 (EPHB2, Homo sapiens, UniProt P29323)",cell-free assay,competition with immobilised ligand,78
"Phosphatidylinositol 3-kinase catalytic subunit type 3 (PIK3C3, Homo sapiens, UniProt Q8NEB9)",cell-free assay,competition with immobilised ligand,100
"Serine/threonine-protein kinase SIK1 (SIK1, Homo sapiens, UniProt P57059)",,competition binding,92

# Study 4 — effect on: enzyme activity; mode: inhibitor; tested at: 10 µM
# Target: Calcium/calmodulin-dependent protein kinase type II subunit alpha (CAMK2A, Homo sapiens, UniProt Q9UQM7)
# Sequence of UniProt Q9UQM7 (whole entry, looked up): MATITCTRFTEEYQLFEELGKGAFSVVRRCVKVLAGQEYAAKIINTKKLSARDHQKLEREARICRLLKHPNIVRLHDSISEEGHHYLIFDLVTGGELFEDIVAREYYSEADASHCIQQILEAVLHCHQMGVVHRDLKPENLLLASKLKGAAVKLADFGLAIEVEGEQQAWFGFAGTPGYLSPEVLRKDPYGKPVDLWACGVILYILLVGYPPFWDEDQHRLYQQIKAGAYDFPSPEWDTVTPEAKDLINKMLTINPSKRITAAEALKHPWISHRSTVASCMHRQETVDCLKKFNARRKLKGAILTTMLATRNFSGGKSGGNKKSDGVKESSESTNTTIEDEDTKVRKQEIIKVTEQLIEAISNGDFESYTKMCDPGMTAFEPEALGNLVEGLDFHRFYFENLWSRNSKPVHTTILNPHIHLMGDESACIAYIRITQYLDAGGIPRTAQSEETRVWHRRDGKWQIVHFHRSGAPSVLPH
SMILES,inhibition [%]
C[C@@H]1O[C@@H](O[C@H]2[C@H](OC(=O)[C@]34CCC(C)(C)C[C@H]3C3=CC[C@@H]5[C@@]6(C)C[C@H](O)[C@H](O[C@@H]7O[C@H](CO)[C@@H](O)[C@H](O)[C@H]7O)[C@](CO)(C(=O)O)[C@@H]6CC[C@@]5(C)[C@]3(C)C[C@H]4O)OC[C@H](O)[C@@H]2O)[C@H](O)[C@H](O)[C@H]1O[C@@H]1OC[C@@H](O)[C@H](O[C@@H]2OC[C@](O)(CO)[C@H]2O)[C@H]1O,-5
CC(C)=CCc1cc2c(cc1O)oc(=O)c1c3ccc(O)cc3oc21,1
Oc1nc(O)c2nc(O)[nH]c2n1,-5
Cc1cccc(C)c1OCC(=O)N[C@@H](Cc1ccccc1)[C@@H](O)C[C@H](Cc1ccccc1)NC(=O)[C@H](C(C)C)N1CCCNC1=O,-4
O=c1c(-c2ccc(O)cc2)coc2cc(O)cc(O)c12,-3
CC1(C)[C@H](OC(=O)c2ccccc2)CC[C@]2(C)C3=CC[C@@]4(C)[C@@H]5C[C@](C)(COC(=O)c6ccccc6)CC[C@]5(C)CC[C@]4(C)C3=CC[C@@H]12,-16
C[C@@H]1O[C@@H](O[C@H]2[C@H](O[C@H]3CC[C@]4(C)[C@H]5CC=C6[C@@H]7CC(C)(C)CC[C@]7(C(=O)O)CC[C@@]6(C)[C@]5(C)CC[C@H]4C3(C)C)OC[C@H](O[C@@H]3O[C@H](CO)[C@@H](O)[C@H](O)[C@H]3O)[C@@H]2O)[C@H](O)[C@H](O)[C@H]1O,-17
O=c1cc(-c2ccc(O)cc2)oc2cc(O[C@@H]3O[C@H](CO)[C@@H](O)[C@H](O)[C@H]3O[C@@H]3OC[C@](O)(CO)[C@H]3O)cc(O)c12,5
O=P(O)(O)OC(CO)CO,23

# Excerpt of the above (study 4):
SMILES,inhibition [%]
C[C@@H]1O[C@@H](O[C@H]2[C@H](OC(=O)[C@]34CCC(C)(C)C[C@H]3C3=CC[C@@H]5[C@@]6(C)C[C@H](O)[C@H](O[C@@H]7O[C@H](CO)[C@@H](O)[C@H](O)[C@H]7O)[C@](CO)(C(=O)O)[C@@H]6CC[C@@]5(C)[C@]3(C)C[C@H]4O)OC[C@H](O)[C@@H]2O)[C@H](O)[C@H](O)[C@H]1O[C@@H]1OC[C@@H](O)[C@H](O[C@@H]2OC[C@](O)(CO)[C@H]2O)[C@H]1O,-5
CC(C)=CCc1cc2c(cc1O)oc(=O)c1c3ccc(O)cc3oc21,1
Oc1nc(O)c2nc(O)[nH]c2n1,-5
Cc1cccc(C)c1OCC(=O)N[C@@H](Cc1ccccc1)[C@@H](O)C[C@H](Cc1ccccc1)NC(=O)[C@H](C(C)C)N1CCCNC1=O,-4
O=c1c(-c2ccc(O)cc2)coc2cc(O)cc(O)c12,-3
CC1(C)[C@H](OC(=O)c2ccccc2)CC[C@]2(C)C3=CC[C@@]4(C)[C@@H]5C[C@](C)(COC(=O)c6ccccc6)CC[C@]5(C)CC[C@]4(C)C3=CC[C@@H]12,-16
C[C@@H]1O[C@@H](O[C@H]2[C@H](O[C@H]3CC[C@]4(C)[C@H]5CC=C6[C@@H]7CC(C)(C)CC[C@]7(C(=O)O)CC[C@@]6(C)[C@]5(C)CC[C@H]4C3(C)C)OC[C@H](O[C@@H]3O[C@H](CO)[C@@H](O)[C@H](O)[C@H]3O)[C@@H]2O)[C@H](O)[C@H](O)[C@H]1O,-17
O=c1cc(-c2ccc(O)cc2)oc2cc(O[C@@H]3O[C@H](CO)[C@@H](O)[C@H](O)[C@H]3O[C@@H]3OC[C@](O)(CO)[C@H]3O)cc(O)c12,5
O=P(O)(O)OC(CO)CO,23
